Assay results gathered from unrelated publications.
Parts stem from different laboratories: compare values within a part only. Changes are numbered by the printed parent chain.

Sample 1 — method: universal PBM; molecule type: double-stranded DNA, one strand shown; medium: in vitro; tested at: 600 nM; reading: higher = stronger binding
Target: Sal-like protein 4, full length isoform A (SALL4, Homo sapiens, UniProt Q9UJQ4, residues 1-1053)
Chain of UniProt Q9UJQ4 (whole entry, looked up): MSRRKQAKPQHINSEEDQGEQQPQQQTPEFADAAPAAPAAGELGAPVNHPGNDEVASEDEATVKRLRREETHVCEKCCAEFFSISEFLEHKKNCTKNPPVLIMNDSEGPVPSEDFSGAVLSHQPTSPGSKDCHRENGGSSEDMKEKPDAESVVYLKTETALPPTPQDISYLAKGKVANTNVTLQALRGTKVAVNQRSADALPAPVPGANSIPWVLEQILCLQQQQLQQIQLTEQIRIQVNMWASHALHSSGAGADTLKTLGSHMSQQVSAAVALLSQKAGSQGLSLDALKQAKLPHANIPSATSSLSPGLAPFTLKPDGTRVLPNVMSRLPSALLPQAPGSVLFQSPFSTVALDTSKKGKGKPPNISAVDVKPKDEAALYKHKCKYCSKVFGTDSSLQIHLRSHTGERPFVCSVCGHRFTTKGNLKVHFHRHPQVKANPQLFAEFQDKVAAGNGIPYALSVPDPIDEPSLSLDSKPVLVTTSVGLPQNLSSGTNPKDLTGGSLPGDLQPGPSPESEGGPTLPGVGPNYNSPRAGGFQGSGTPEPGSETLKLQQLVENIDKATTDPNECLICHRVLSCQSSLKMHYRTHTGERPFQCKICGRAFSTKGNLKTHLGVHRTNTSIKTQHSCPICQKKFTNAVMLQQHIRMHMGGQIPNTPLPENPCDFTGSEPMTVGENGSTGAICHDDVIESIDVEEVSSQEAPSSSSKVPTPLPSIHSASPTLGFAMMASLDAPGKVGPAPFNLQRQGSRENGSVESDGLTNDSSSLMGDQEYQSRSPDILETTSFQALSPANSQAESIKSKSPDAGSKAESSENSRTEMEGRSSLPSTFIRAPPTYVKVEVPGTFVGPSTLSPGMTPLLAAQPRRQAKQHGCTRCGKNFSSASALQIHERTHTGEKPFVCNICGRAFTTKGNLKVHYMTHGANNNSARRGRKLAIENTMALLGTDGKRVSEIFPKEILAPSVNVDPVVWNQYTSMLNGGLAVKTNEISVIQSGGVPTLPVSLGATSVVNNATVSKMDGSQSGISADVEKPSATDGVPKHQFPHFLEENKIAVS
Notes: 8-mer, flanks averaged, mean of replicates
Oligonucleotide | E-score
CGACAGTA | -0.0561
GTGCGGGA | -0.211
AGACTCCT | -0.157
CGGCGCCA | -0.3
CCATTCCG | -0.221
ACTTACCC | 0.0554
TACTAGTA | 0.252
TGCCGCCA | -0.125
ACACACTC | 0.0534
GTGAACGA | 0.0595
CCGCAAGG | -0.259
ACTGCTAC | 0.0165
GGCATGAC | -0.23
TCCTTGAA | 0.121
GAACTCTC | -0.209
ACTACAGA | 0.259
AGGTGAGG | -0.132

Sample 2 — method: DHFR PCA, deep sequencing; medium: yeast; together with: (+)-ABA 17 µM; baseline: wild-type fitted maximum; reading: higher = stronger binding
Target: ABI1, truncated, D143A, DHFR fusion (Arabidopsis thaliana)
Notes: methotrexate growth selection, single substitutions
Starting sequence: PYL1, truncated, DHFR fusion (Arabidopsis thaliana); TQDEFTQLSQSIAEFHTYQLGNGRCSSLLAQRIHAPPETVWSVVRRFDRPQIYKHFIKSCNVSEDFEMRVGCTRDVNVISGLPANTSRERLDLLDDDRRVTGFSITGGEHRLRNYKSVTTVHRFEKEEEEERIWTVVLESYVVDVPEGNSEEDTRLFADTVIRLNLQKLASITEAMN; partner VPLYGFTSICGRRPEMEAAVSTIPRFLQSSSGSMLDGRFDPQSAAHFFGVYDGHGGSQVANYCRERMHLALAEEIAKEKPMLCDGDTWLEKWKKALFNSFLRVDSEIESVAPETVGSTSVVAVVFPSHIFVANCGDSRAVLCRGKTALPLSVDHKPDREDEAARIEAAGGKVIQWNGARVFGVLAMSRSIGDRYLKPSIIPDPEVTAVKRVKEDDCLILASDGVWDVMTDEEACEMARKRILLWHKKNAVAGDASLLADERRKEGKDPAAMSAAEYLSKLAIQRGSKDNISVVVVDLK
Change | relative binding score
S117N | 19%
R111F | 12.9%
Q19E | 89.2%
Q2S | 83.6%
G21L | 71%
N114E | 15.8%
V44R | 10.5%
M176F | 70.6%
F56L | 76.3%
T1Q | 84.7%
Q7C | 82.1%
N165S | 2.85%
F15G | -1.7%
T101G | -3.83%
F103C | -10.7%
L93Y | 86.6%
T101K | 1.52%
H34L | 77.6%
Q10V | 73.7%
F5L | 89%
D144P | 21.9%

Sample 3 — method: RNA Bind-n-Seq; molecule type: RNA; medium: in vitro; tested at: not given; baseline: input RNA pool; reading: higher = stronger binding
Target: RING finger protein unkempt homolog, zinc fingers 1-6, GST-SBP tag (UNK, Homo sapiens, UniProt Q9C0B0, residues 30-357)
Notes: RNA with constant flanks, human and mouse sites, ends assumed
Shared flanks, not repeated: GGGAGUUCUACAGUCCGACGAUC … CAACAGAGGAUUGAGCAUCA
Target sequence (chain): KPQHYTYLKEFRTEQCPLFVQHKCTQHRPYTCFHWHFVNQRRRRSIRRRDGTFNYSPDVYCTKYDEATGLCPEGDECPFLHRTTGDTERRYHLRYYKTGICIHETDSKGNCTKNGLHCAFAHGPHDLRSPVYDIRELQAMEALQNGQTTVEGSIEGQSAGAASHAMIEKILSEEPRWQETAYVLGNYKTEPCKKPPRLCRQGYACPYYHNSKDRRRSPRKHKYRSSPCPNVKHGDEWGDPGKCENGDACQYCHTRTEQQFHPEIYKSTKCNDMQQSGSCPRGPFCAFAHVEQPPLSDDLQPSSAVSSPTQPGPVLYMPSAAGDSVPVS
Oligonucleotide | bound/input enrichment
UGAAACCUUUGGAUAGGGGAAAAAAUUAUAUAUAUAUAUAUUUUUUUGUUCUGUUUGCAUUUCUUAAUUUGUGCUUGGAAUGUGUUGAUGUGCACAGCUAAUGAUUCAAUGCGAGACAAG | 0.391 ratio
GAAGAACAUUAUUCUUCUUCUCCAGAGAAGAUCCUAUCUCCUUUUUCACAAAAGUAUCAGGCUUGCAGAGCAAAUCUCCAGAGUACCAGCAGGUUGACUCUGUUUUCAGAAAUGGUUUAU | 0.233 ratio
UAAGAAAAGAAGGGCUAAAAGAUGAGGAAGAUUUCUUUGAUUUUAAAGCUGGAGAAGAAGUUCUGGCUCGUUGGACAGACUGUCGCUAUUACCCUGCCAAGAUUGAAGCAAUUAACAAAG | 0.2 ratio
CGACGCAAUAAGGAUGUGCUGGCCUGGGUAAAAAAGCGCAGAAGAACUAUUCGUAGAGAAGAUUUGAUCAGCUUCCUGUGUGGAAAGGUUCCUCCACCACGAAACUCUAGAGCUCCCCCA | 0.206 ratio
GUCUGCGCGGAUAAAUGUCGUGGAGCCCUUUUUGUAUGGAAACGUUUUAAGCUAUUUAAAGCCUUUGGAAAAUACAGGAAGCUCCAGGGCUGGAGCACCUCUGAGAUGGAAUUGAUAACA | 0.414 ratio
UUUUCUGUUAACAGUAUUUCUUGUGUGCGUGCUUGUUGGGCAGCCCGUUUGGCUGCGUUAUAUAGCGAGUGAUGAGCUGAUCCUUUCCCCUAAGAGACAUGACUUCCCUCCGUCAGCAUU | 0.531 ratio
UCCUGGGCGCCCUUGAAGCACCGCGGGUCAUGGCUGGCACGGCGCGCGGCUGCGGGACCAGCCUGGACCUGCUGCGGUCCUUGCCGAGAGUGAGCCUGGCCAACCUGAAGCCCAGUCCUA | 0.0531 ratio
GCCUUUUUCCUUGUUUUCUUCUUAGUGACAGCAUUUUUUGGAACUGGAAAUAUAGCUUCUAUUAACAGCUUUGAUCUUGCCUCUGUCUAUUGCUUUCUGACUGUGUUCAGUCCUUUUAUG | 1.05 ratio
CAUCAUUGAAGAGUCCUUAAAAACUUAACAGACUUGUGUAACAGCACAAGUAUGUUCCUAAAGUGCUGUAUUUACUGAAUCUGUUUCCUGGAAAAGUAAUUAAUAAAGCUUAUUCUCAGA | 0.114 ratio
GUGCAGCAGGACACGAUCCUGGCCGAAGGCCUUCACUUCAGGAUCCCCUGGUUCCAGUACCCCAUCAUCUAUGACAUUCGGGCCAGACCUCGAAAAAUCUCCUCCCCCACAGGCUCCAAA | 0.462 ratio
UUCUGGUUCAGAUCUGUGCCGUUGGCUGCCACAAGUAUGCUGAUUACUCAAGGAUUAAUUAGUAAAGGAAUCCUGUCAAGUCAUCCAAAAUAUGGUUCAAUUCCUAAACUUCUAUUCGCU | 0.236 ratio

Sample 4 — target: CCNB1, cyclin fold, Cln2 fusion (human); method: yeast growth competition, sequencing; medium: yeast; notes: weak parent motif; baseline: not given; reading: higher = stronger binding
Starting sequence: CDC6 docking peptide (human); TLKGRRLVFDNQL
Change | normalised enrichment score
TLKGRRLVFDNQP [L13P] | 0.745
TLQGRRLVFDNQL [K3Q] | 0.313
TFKGRRLVFDNQL [L2F] | -0.248
TLKIRRLVFDNQL [G4I] | 0.494
TLKGRRLVFDNEL [Q12E] | -0.528
TLKGRRLVFVNQL [D10V] | 0.024
TLKGRRLVFDNQR [L13R] | 0.758
TLKGRRKVFDNQL [L7K] | 1.08
TLKGRRLVFDGQL [N11G] | 0.222
TLKGRILVFDNQL [R6I] | -0.00686
TLKGVRLVFDNQL [R5V] | 0.418
TLKGRRLCFDNQL [V8C] | 1.08
TSKGRRLVFDNQL [L2S] | -0.588
TLKGRRLVFDFQL [N11F] | 0.608
TLKGFRLVFDNQL [R5F] | -0.195
TLKGRRLVFGNQL [D10G] | -1.14
TLKGRKLVFDNQL [R6K] | -0.202
TLKGRRLVFDNQY [L13Y] | 0.196
TLVGRRLVFDNQL [K3V] | 0.539
TLKGRRLVGDNQL [F9G] | 0.0744
TLKGRRSVFDNQL [L7S] | 0.0155
TLKGRRLVFDNQH [L13H] | -0.255
TLKGRRLVFDNHL [Q12H] | 0.235
TLKGRRLWFDNQL [V8W] | 0.912
TLKGRRLVFDNQF [L13F] | 0.559

Sample 5 — target: CEBPD, bZIP domain (human); method: DHFR protein complementation; medium: yeast; baseline: wild-type JUN-FOS pair; reading: higher = stronger binding
Notes: single substitutions, most at no-binding floor
Starting sequence: JUN, bZIP domain (human); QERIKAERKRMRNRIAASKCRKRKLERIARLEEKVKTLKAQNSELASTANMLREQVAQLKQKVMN; partner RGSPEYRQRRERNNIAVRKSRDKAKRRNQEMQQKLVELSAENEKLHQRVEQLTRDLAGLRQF
Change | binding fitness
E32T | -1.42 natural log
A29I | -1.15 natural log
L45V | -1.48 natural log
M51L | -1.28 natural log
E54S | -1.37 natural log
E44H | -1.31 natural log
M51P | -1.48 natural log
I28P | -1.32 natural log
A49L | -1.18 natural log
K36W | -1.14 natural log
M51K | -1.29 natural log
R53N | -1.3 natural log
Q58P | -1.49 natural log
E32A | -1.29 natural log
E44M | -1.37 natural log
V56P | -1.46 natural log
R53F | -1.04 natural log
A57M | -1.41 natural log

Sample 6 — method: RNAcompete; molecule type: RNA; medium: in vitro; tested at: 20 nM; notes: 7-mer, probes averaged, single round; baseline: mean of 7-mers; reading: higher = stronger binding
Target: PABPC1L2, full length, GST fusion (mouse, UniProt A0ABA7IW68)
Target sequence (chain): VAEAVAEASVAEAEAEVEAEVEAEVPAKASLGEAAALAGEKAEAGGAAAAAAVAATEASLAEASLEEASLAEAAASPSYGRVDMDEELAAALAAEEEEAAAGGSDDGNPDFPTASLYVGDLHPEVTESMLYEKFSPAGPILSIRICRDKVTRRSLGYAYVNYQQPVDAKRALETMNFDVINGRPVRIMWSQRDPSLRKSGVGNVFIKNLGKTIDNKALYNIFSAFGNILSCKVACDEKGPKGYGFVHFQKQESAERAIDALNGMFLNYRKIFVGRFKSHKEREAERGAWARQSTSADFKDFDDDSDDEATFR
Oligonucleotide | 7-mer Z-score
GACACAG | 0.117
AUACCGA | -0.271
CUGCUUG | -0.266
UUUCCUG | -0.296
AACUUAA | 0.314
UGGUCCU | 0.0533
AGGGCCC | -0.079
CGACGGU | -0.173
CAGGGCG | 0.0533
CCGAGAC | -0.184
AUCGAUA | 0.0841
GGCCCAA | -0.141
CGACGAG | 0.216
CUCACCA | -0.24
ACUGUGC | -0.162
GAUUGAG | -0.159
GGGACGG | 0.331
AAUGCAC | 0.12
GCUACCA | -0.108
UAUCUGC | -0.291
CUCUCGA | -0.119
CGUCAAA | 0.0533

Some of these lines once more (sample 4):
Change | normalised enrichment score
TLKIRRLVFDNQL [G4I] | 0.494
TLKGRRLVFDNEL [Q12E] | -0.528
TLKGRRLVFVNQL [D10V] | 0.024
TLKGRRLVFDNQR [L13R] | 0.758
TLKGRRKVFDNQL [L7K] | 1.08
TLKGRRLVFDGQL [N11G] | 0.222
TLKGRILVFDNQL [R6I] | -0.00686
TLKGVRLVFDNQL [R5V] | 0.418
TLKGRRLCFDNQL [V8C] | 1.08
TSKGRRLVFDNQL [L2S] | -0.588
TLKGRRLVFDFQL [N11F] | 0.608
TLKGFRLVFDNQL [R5F] | -0.195
TLKGRRLVFGNQL [D10G] | -1.14
TLKGRKLVFDNQL [R6K] | -0.202
